Results gathered from unrelated publications.
Parts stem from different laboratories: compare values within a part only. Values joined by “and” are separate records of one study, mostly repeats; a detail may differ.
Chain of UniProt P9WI81 (whole entry, looked up): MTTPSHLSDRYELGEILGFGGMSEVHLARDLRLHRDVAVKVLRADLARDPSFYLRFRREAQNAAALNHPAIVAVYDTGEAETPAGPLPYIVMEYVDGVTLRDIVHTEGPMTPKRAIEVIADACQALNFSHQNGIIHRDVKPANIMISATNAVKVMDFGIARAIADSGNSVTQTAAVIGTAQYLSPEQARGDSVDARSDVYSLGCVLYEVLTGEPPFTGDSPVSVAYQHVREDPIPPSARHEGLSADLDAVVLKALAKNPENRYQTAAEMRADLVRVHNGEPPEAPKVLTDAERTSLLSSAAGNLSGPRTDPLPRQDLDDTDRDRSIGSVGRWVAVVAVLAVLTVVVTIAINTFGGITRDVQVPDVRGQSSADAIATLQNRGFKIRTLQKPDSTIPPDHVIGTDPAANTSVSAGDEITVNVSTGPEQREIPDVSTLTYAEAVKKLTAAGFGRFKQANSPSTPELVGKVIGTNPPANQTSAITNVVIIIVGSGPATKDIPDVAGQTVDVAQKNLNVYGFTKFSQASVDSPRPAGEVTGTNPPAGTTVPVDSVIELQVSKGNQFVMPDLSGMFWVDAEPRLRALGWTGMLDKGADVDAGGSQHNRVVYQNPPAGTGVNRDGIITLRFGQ
Chain of UniProt P24723 (whole entry, looked up): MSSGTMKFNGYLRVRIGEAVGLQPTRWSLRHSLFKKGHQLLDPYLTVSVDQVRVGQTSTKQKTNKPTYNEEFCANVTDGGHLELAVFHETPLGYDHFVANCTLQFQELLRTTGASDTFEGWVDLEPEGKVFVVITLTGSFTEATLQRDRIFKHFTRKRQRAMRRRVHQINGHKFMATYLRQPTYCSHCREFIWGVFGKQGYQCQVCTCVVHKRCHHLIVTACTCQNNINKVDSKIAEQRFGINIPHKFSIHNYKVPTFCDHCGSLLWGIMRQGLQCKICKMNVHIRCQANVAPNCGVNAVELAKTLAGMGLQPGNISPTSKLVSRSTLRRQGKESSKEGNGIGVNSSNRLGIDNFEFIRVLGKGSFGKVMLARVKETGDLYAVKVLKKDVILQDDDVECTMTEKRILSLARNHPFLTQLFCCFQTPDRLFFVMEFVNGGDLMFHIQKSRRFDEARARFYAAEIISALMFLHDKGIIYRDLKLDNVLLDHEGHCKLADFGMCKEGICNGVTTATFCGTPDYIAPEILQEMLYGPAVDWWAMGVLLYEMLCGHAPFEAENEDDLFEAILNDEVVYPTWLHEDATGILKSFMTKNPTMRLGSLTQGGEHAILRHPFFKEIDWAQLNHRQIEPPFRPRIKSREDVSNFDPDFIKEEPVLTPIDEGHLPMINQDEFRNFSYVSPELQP
Chain of UniProt P28335 (whole entry, looked up): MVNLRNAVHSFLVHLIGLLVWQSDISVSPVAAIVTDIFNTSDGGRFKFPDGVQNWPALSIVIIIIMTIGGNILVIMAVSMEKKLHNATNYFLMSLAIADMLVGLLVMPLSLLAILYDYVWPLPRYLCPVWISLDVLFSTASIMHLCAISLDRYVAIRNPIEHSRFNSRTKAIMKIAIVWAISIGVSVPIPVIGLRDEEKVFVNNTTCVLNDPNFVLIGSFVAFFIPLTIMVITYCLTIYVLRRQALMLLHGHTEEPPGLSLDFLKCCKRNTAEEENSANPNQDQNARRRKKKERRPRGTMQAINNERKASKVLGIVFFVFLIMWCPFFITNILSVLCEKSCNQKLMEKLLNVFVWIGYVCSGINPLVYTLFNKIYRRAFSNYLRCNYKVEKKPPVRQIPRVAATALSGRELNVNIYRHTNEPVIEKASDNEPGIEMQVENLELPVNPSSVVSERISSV

Series 1
SMILES: CC[C@@H](C)c1nc2cc(Nc3ccnc4ccc(S(=O)(=O)C(C)C)cc34)ccc2s1.Cl
For L929 RIPK3 knockout; 25 µM: viability read 91.1% and 97.7% and 71.1% and 96.3% and 89.5%.
It gave 104% and 97.6% and 103% and 102% for viability (L929 RIPK3 knockout; 1.563 µM).
The viability was 85.8% and 100% and 89.7% and 85.2% (HT-29; necroptosis protection, CCK-8; 10 µM, with: TNF-α SMAC mimetic zVAD).
For L929 RIPK3 knockout; 12.5 µM: viability read 94.5% and 114% and 113% and 105% and 97.3%.
It gave 21.3% and 13.9% and 14.8% and 23.1% and 22.8% for viability (HT-29; necroptosis protection, CCK-8; 0.313 µM, with: TNF-α SMAC mimetic zVAD).
It gave 94.9% and 93.3% and 69.7% and 93.4% and 97% for viability (L929 RIPK3 knockout; 25 µM, with: zVAD).
It gave 42.5% and 40.8% and 35.8% and 48.6% and 49.1% for viability (L929 RIPK3 knockout; 100 µM).
The viability was 107% and 109% (L929; CCK-8; 6.25 µM).
For L929; CCK-8; 25 µM, with: zVAD: viability read 91.7% and 82.4% and 89.4% and 81.1%.
HT-29; necroptosis protection, CCK-8; 2.5 µM, with: TNF-α SMAC mimetic zVAD — viability: 58% and 68.5% and 86% and 64%.
For L929; CCK-8; 6.25 µM, with: zVAD: viability read 105% and 107% and 101%.
L929; CCK-8; 1.563 µM — viability: 104% and 101% and 102%.

Series 2
Target: CRBN/Zinc finger protein Helios (Homo sapiens, UniProt Q96SW2+Q9UKS7)
Chain of UniProt Q96SW2 (whole entry, looked up): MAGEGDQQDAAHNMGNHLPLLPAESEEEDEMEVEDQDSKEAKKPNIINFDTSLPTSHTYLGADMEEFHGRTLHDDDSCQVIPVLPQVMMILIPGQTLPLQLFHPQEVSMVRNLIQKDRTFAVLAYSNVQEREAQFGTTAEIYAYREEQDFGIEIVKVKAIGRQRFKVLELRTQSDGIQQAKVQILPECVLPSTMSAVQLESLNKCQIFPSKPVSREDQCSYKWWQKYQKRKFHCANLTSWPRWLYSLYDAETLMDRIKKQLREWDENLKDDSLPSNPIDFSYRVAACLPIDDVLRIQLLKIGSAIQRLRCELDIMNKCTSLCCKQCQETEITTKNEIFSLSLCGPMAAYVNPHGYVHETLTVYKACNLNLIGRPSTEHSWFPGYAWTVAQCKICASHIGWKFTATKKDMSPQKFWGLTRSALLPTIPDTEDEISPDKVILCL
Chain of UniProt Q9UKS7 (whole entry, looked up): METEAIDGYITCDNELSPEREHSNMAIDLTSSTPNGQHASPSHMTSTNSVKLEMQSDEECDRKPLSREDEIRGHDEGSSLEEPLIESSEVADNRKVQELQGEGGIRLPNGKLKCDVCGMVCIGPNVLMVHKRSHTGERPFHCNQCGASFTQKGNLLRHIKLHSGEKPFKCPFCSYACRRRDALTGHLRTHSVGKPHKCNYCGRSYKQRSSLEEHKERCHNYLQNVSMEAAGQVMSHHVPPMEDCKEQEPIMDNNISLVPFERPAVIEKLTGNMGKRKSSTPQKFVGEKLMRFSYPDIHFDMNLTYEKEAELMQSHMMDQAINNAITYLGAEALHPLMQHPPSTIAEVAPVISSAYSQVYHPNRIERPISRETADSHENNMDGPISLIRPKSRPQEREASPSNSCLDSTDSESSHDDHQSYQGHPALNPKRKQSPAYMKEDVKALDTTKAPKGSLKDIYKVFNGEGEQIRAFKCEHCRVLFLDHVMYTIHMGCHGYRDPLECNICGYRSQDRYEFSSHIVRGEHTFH
Action: degrader
Method: HiBiT
Cells: HEK293
Concentration: 370.37 nM
With `O=C1CCC(N2Cc3c(ccc4c3OCC43CCN(CC4CCCCC4)CC3)C2=O)C(=O)N1` (stereo not shown) the protein remaining was 41.6%.
`O=C1CCC(N2Cc3c(ccc4c3OCC43CCN(Cc4ccsc4)CC3)C2=O)C(=O)N1` (stereo not shown) gave a protein remaining of 22.3%.
The protein remaining of `O=C1CCC(N2Cc3c(ccc4c3OCC43CCN(Cc4ccccn4)CC3)C2=O)C(=O)N1` (stereo not shown) is reported as 52.9%.

Series 3
Organism: Sarcocystis neurona
Observed: parasite growth
Concentration: 10 µM
Time: 96 h
Notes: first screen
Baseline: untreated
`O=c1c2ccccc2[se]n1-c1ccccc1` — result for “log2 fold change”: 0.12.
For `O=C(O)CCCc1ccc(N(CCCl)CCCl)cc1`, “log2 fold change” read -0.39.
`NC(=O)OCCCc1ccccc1`: “log2 fold change” 0.37.

Series 4
Target: Bromodomain-containing protein 4, BD1 (BRD4, Homo sapiens, UniProt O60885)
Observed: acetyl-histone H4 peptide binding
Method: AlphaScreen displacement
Concentration: 50 µM
The inhibition of `CN1C(=O)NC(=O)C(=CNc2ccc(Cl)cc2)C1=O` is reported as 17.1%.
For `O=C1NC(=O)N(c2ccc(F)cc2)C(=O)C1=CNc1ccc2c(c1)OCO2`, the inhibition was 6.45%.
`Cc1ccc(NC=C2C(=O)NC(=O)N(C)C2=O)cc1` has an inhibition of 11.3%.

Other studies, line by line
With `O=C([C@H]1C[C@H](O)CN1c1ccc(Cl)cc1)N1CC2COCC(C1)N2Cc1ccc(Cl)cc1` the inhibition was -2.02% (5-hydroxytryptamine receptor 2C (HTR2C, Homo sapiens, UniProt P28335); binding, radioligand binding; 10 µM).
`Cc1sc2c(c1C)C(c1ccc(Cl)cc1)=N[C@H](CC(=O)OC(C)(C)C)c1nnc(C)n1-2` gave a nuclei count of -0.0248 z-score (mouse MPNST tumor cells; high-content nuclear imaging, item: cell number; 10 µM, 12 h, mean of 2 replicates; baseline: plate mean, higher = more cells).
`O=C(NCc1ncc(C(F)(F)F)cc1Cl)c1ccc2c(c1)C1(CCS(=O)(=O)CC1)[C@@H](C1CC1)N2S(=O)(=O)c1ccc(F)cc1` has a remaining binding of 96% (Protein kinase C eta type (PRKCH, Homo sapiens, UniProt P24723); cell-free assay, competition with immobilised ligand; 1 µM).
`CCCCN(CCCC)C(=O)CN1C[C@@H](c2cc(OC)c3c(c2)OCO3)[C@H](C(=O)O)[C@H]1CC(C)(C)CCC` has a remaining binding of 92.8% (Serine/threonine-protein kinase PknB (pknB, Mycobacterium tuberculosis, UniProt P9WI81); cell-free assay, competition with immobilised ligand; 1 µM).

Some of these lines once more (other studies, line by line):
`CCCCN(CCCC)C(=O)CN1C[C@@H](c2cc(OC)c3c(c2)OCO3)[C@H](C(=O)O)[C@H]1CC(C)(C)CCC` has a remaining binding of 92.8% (Serine/threonine-protein kinase PknB (pknB, Mycobacterium tuberculosis, UniProt P9WI81); cell-free assay, competition with immobilised ligand; 1 µM).
`O=C(NCc1ncc(C(F)(F)F)cc1Cl)c1ccc2c(c1)C1(CCS(=O)(=O)CC1)[C@@H](C1CC1)N2S(=O)(=O)c1ccc(F)cc1` has a remaining binding of 96% (Protein kinase C eta type (PRKCH, Homo sapiens, UniProt P24723); cell-free assay, competition with immobilised ligand; 1 µM).
`Cc1sc2c(c1C)C(c1ccc(Cl)cc1)=N[C@H](CC(=O)OC(C)(C)C)c1nnc(C)n1-2` gave a nuclei count of -0.0248 z-score (mouse MPNST tumor cells; high-content nuclear imaging, item: cell number; 10 µM, 12 h, mean of 2 replicates; baseline: plate mean, higher = more cells).
